# Assay results collected from several papers.
# Compare with care: the assays were run in different laboratories.
# Chain of UniProt Q15303 (whole entry, looked up): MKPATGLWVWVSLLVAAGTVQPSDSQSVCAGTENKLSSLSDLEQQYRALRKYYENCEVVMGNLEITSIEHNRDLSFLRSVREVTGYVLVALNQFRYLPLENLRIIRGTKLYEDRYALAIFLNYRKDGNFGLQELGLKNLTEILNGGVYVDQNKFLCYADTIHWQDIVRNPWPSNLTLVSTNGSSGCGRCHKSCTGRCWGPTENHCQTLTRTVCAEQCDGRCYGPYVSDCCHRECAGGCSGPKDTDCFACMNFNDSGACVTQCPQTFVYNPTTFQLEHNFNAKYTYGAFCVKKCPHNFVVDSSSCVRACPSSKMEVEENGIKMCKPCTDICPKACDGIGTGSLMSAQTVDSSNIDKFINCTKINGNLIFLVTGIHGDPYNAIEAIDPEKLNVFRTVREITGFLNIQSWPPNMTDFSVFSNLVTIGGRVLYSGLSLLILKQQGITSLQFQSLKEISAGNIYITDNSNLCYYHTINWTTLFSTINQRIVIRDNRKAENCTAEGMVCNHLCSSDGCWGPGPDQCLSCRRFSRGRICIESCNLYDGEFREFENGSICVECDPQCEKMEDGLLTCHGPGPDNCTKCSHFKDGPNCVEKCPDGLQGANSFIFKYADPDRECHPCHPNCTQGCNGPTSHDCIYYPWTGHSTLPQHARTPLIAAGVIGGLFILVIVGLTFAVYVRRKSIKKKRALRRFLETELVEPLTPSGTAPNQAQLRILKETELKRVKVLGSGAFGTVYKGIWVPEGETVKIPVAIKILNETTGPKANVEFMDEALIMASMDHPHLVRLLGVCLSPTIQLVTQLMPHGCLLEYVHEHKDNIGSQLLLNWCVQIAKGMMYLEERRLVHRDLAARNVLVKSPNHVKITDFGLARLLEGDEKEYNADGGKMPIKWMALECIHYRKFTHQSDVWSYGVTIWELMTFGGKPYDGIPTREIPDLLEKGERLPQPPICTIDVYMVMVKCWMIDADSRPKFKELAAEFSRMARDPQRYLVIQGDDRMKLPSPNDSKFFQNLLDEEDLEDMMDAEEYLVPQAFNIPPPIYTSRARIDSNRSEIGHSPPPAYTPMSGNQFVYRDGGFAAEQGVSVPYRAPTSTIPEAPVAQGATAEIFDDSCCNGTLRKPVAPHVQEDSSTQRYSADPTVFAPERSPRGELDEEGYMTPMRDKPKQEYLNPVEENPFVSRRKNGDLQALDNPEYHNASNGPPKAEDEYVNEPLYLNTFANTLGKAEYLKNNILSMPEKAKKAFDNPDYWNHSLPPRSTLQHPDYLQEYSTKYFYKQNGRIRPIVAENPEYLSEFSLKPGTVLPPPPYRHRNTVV
Structure (SMILES),target or system,test,system,conditions,endpoint,value
CCCCCOc1ccc(C(=O)c2cccc3ccccc23)c2ccccc12,,,"mouse, brain","intraperitoneal, 3 mg/kg",unbound tissue/plasma ratio,0.016
C/C=C1/CN2CC[C@@]34c5ccccc5N(C)[C@]35OC[C@@]4(C(=O)OC)[C@H]1C[C@H]25,,,Caco-2,pH 7.4,Papp A→B,29 ×10⁻⁶ cm/s
Cc1ncc2n1-c1ccc(Cl)cc1C(c1ccccc1F)=NC2,,,"human, hepatocytes","4 h, pH 7.4",fraction unbound,1
COc1ccc([C@@]23Oc4cc(OC)cc(OC)c4[C@@]24N=C(C2CC2)N[C@@]4(O)[C@H](C(=O)N(C)OC)[C@H]3c2ccccc2)cc1,,metabolic stability,"human, liver microsomes","1 µM, pH 7.4",microsomal CLint,75.9 µL/min/mg
COc1ccc2c(c1)[C@]13CCCC[C@@H]1[C@H](C2)N(C)CC3,,,"human, hepatocytes","4 h, pH 7.4",fraction unbound,1
COCC1=N[C@@]2(O)[C@H](C(=O)N(C)OC)[C@@H](c3ccccc3)[C@]3(c4ccc(OC)cc4)Oc4cc(OC)cc(OC)c4[C@]23N1,,metabolic stability,"male CD-1 mouse, liver microsomes","1 µM, pH 7.4",microsomal CLint,308 µL/min/mg
C[C@]12CC[C@H]3[C@@H](CC=C4CC(O)CC[C@@]43CO)[C@@H]1CCC2O (stereo partly shown),,,"rat, plasma","intraperitoneal, 10 mg/kg",AUC,1100 ng·h/mL
[2H]c1c([2H])c([C@]2([2H])CCCN2C(=O)C(C)(C)Oc2ccc3cn[nH]c3c2)c([2H])c([2H])c1C([2H])([2H])[2H],"Receptor tyrosine-protein kinase erbB-4 (ERBB4, Homo sapiens, UniProt Q15303)","binding, competition with immobilised ligand",,1 µM,remaining binding,82%
COc1ccc([C@@]23Oc4cc(OC)cc(OC)c4[C@@]24NC(C)=N[C@@]4(O)[C@H](C(=O)N(C)OC)[C@H]3c2ccccc2)cc1,,metabolic stability,"human, liver microsomes",,microsomal CLint,11.6 µL/min/mg
CC[C@H](C)[C@H](NC(=O)CN)C(=O)NCC(=O)N[C@@H](C)C(=O)N[C@H](C(=O)N[C@@H](CC(C)C)C(=O)N[C@@H](CCCCN)C(=O)N[C@H](C(=O)N[C@@H](CC(C)C)C(=O)N[C@H](C(=O)N[C@H](C(=O)NCC(=O)N[C@@H](CC(C)C)C(=O)N1CCC[C@H]1C(=O)N[C@@H](C)C(=O)N[C@@H](CC(C)C)C(=O)N[C@H](C(=O)N[C@@H](CO)C(=O)N[C@@H](Cc1c[nH]c2ccccc12)C(=O)N[C@H](C(=O)N[C@@H](CCCCN)C(=O)N[C@@H](CCCNC(=N)N)C(=O)N[C@@H](CCCCN)C(=O)N[C@@H](CCCNC(=N)N)C(=O)N[C@@H](CCC(N)=O)C(=O)N[C@@H](CCC(N)=O)C(N)=O)[C@@H](C)CC)[C@@H](C)CC)[C@@H](C)O)[C@@H](C)O)C(C)C)C(C)C,,"chemical stability, HPLC","human, serum","300 µM, 24 h",compound remaining,~23%

# A few entries again:
Structure (SMILES),target or system,test,system,conditions,endpoint,value
COCC1=N[C@@]2(O)[C@H](C(=O)N(C)OC)[C@@H](c3ccccc3)[C@]3(c4ccc(OC)cc4)Oc4cc(OC)cc(OC)c4[C@]23N1,,metabolic stability,"male CD-1 mouse, liver microsomes","1 µM, pH 7.4",microsomal CLint,308 µL/min/mg
